Assay results collected from several papers.
Numbered parts are unrelated; each lists some results of a single study. Changes are numbered by the printed parent chain.

Block 1
Target: CCNB2, cyclin fold, Cln2 fusion (human)
Method: yeast growth competition, sequencing
Matrix: yeast
Notes: weak parent motif
Baseline: not given
Direction: higher = stronger binding
Measurement: normalised enrichment score
Starting sequence: CDC6 docking peptide (human); TLKGRRLVFDNQL; partner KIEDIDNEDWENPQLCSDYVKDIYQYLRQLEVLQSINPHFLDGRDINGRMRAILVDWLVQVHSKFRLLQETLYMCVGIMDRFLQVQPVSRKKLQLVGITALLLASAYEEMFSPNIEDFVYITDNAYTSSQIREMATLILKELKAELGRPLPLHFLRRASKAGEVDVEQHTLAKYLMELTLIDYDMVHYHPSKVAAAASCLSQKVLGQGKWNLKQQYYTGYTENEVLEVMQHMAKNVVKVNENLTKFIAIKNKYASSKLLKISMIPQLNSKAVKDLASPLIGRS
TLKERRLVFDNQL [G4E]: 0.0798
DLKGRRLVFDNQL [T1D]: -0.435
TLKGRRLVFDNTL [Q12T]: -0.246
TWKGRRLVFDNQL [L2W]: -0.0483

Block 2
Target: Interferon regulatory factor 5, full length, phosphomimetic (IRF5, Homo sapiens, UniProt Q13568-2, residues 1-514, S451D/S453D/S456D/S462D)
Method: protein-binding microarray
Form: double-stranded DNA, one strand shown
Matrix: in vitro
Concentration: 940 nM top
Notes: 60-bp whole probe
Together with: salmon DNA 0.4 mg/ml
Baseline: random background probes
Direction: higher = stronger binding
Measurement: fitted relative affinity
GCCTAGCACTTAGGTCTCCTTCTCCTTTCGTGCTAGGTCTTGATTCGCTTGACGCTGCTG: 0.654 z-score
GCCTAGCACTCATTTTTATCAATCATACTGTGCTAGGTCTTGATTCGCTTGACGCTGCTG: 0.851 z-score
GCCTAGCACTAAGGTTTCGGACTGGGTTAGTGCTAGGTCTTGATTCGCTTGACGCTGCTG: 5.09 z-score
GCCTAGCACTTACGACTGGGGACTGGGTTAGTGCTAGTCTTGATTCGCTTGACGCTGCTG: 0.122 z-score

Block 3
Target: Histone acetyltransferase KAT6A, both winged helices, GST fusion (KAT6A, Homo sapiens, UniProt Q92794, residues 1-181)
Method: protein binding microarray
Form: double-stranded DNA, one strand shown
Matrix: in vitro
Concentration: not given
Notes: 8-mer, flanks averaged, mean of 2 arrays, mostly near background
Baseline: not given
Direction: higher = stronger binding
Measurement: E-score
Construct (chain): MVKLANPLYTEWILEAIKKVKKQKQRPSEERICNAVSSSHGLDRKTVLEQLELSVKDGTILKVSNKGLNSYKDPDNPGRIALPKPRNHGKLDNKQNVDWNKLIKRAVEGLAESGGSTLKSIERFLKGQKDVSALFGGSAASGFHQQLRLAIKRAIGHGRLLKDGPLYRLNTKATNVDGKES
AACTGTAT: 0.0121
CTAATAAA: -0.0632
ATGCGGGA: 0.282
CCTTAGAG: -0.142

Other studies, line by line
PhoQ, residues 284 288 289 292 302 303 TGYLSA — fold induction (PhoP, residues 12 14 15 18 19 LWHCS (Escherichia coli, UniProt P23836); Sort-seq, item: YFP reporter; E. coli; PhoQ-PhoP variant library, together with: 10 µM Mg2+; baseline: high Mg2+ state, higher = stronger signaling): 7.05

Some of these lines once more (block 2):
GCCTAGCACTTACGACTGGGGACTGGGTTAGTGCTAGTCTTGATTCGCTTGACGCTGCTG: 0.122 z-score
GCCTAGCACTTAGGTCTCCTTCTCCTTTCGTGCTAGGTCTTGATTCGCTTGACGCTGCTG: 0.654 z-score
